Measurements pooled from the literature.
Each numbered part is a random draw from the data of one study; scales do not carry over between parts. Positions count from the first letter of the parent shown.

Study 1 — effect on: binding; method: phage display NGS; molecule type: peptide; concentration: concentration not given; baseline: input library
Target: UDP-N-acetylglucosamine--peptide N-acetylglucosaminyltransferase 110 kDa subunit (OGT, Homo sapiens, UniProt O15294)
Residues (O15294 1-1046): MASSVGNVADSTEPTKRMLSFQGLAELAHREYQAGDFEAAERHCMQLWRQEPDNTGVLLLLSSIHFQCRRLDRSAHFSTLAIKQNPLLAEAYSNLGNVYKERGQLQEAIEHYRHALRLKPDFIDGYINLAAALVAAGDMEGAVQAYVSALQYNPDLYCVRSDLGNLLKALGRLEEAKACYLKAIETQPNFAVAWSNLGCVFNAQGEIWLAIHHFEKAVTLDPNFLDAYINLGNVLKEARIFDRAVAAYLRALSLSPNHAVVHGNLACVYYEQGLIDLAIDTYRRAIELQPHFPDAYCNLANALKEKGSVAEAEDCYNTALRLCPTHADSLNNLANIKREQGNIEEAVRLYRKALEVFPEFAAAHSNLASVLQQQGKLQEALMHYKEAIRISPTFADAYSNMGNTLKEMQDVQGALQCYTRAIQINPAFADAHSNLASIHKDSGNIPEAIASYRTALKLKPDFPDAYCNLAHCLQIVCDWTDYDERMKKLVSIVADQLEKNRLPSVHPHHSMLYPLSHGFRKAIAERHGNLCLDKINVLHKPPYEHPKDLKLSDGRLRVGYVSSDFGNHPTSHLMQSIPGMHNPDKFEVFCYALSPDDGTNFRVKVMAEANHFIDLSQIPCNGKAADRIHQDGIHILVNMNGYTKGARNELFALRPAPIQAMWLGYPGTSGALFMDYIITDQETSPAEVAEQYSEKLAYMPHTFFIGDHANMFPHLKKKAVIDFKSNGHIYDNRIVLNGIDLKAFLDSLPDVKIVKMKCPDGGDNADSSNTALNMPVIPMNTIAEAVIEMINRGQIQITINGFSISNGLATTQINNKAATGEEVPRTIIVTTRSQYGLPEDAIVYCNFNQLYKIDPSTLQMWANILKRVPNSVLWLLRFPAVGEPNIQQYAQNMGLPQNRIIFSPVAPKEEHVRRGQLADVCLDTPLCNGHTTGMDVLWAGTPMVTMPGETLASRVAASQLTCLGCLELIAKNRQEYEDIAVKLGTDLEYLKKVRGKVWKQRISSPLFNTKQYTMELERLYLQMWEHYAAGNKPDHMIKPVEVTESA
Sequence	enrichment fold change
QEGTMPIYQIIMKYD	3.37
QPYFLPKYVITVDNS	8.47
DMYEYRYKPHYVIQI	6.57
HPTWPVEHHHDKIYS	7.07
YMVDTHHKHHQHPVF	3.79
HKSHTPHNMDWNTVR	3.14
TAPTHHGHHYASDHH	5.36
TLSPQHNHEHNQPHH	7.02
IHYEPQYPITYKTYT	3.25
TPYPPYYPIVYMRT	4.44
HFYTPHFHYEHARFQ	2.66
IRHPYDHFHDKPGGS	9.39
QNLEFFPKYQLVTR	4.18
HVSHTHPYQSQDHQH	4.15
YFPPVYEMQVKHFQ	5.03
QDHTHFFHVVTNHHH	10.9
SRSHPVEQPVNFQHH	3.01

Study 2 — method: protein-binding microarray; molecule type: double-stranded DNA, one strand shown; medium: in vitro; concentration: 250 nM; notes: 60-bp whole probe; together with: salmon DNA 0.4 mg/ml; baseline: random background probes; direction: higher = stronger binding; constant ends, left off below: GCCTAGCAC … GTCTTGATTCGCTTGACGCTGCTG
Target: Interferon regulatory factor 5, full length, phosphomimetic (IRF5, Homo sapiens, UniProt Q13568-2, residues 1-514, K96S/S451D/S453D/S456D/S462D)
Strand	log fluorescence [z-score]
TTAGATTTCGCGACTGGATTAGTGCTA	0.658
TTAGGTTTCGGTTCCGGTTCGTGCTAG	10.5
TTAGGACTGCTTCTACTTTAGTGCTAG	-0.209
TTAGATATCCGTATCGATTAGTGCTAG	4.58
GTCGGTTTCGACTTTCGGGACGTGCTA	8.78
TTAGGTTTCGGGACTGGATTAGTGCTA	6.36
TTAGAACTGGGCACTGGATTAGTGCTA	-0.726
TGAAATCTCTTTCCTTACTTGTGCTAG	1.45

Study 3 — target: tungstate, free oxyanion; method: microfluidic competitive inhibition; medium: in vitro, cell-free expressed; concentration: not given; direction: lower = stronger binding
Notes: derived from inhibition constants, unchanged parent 2230 nM
Starting sequence: PafA, mature enzyme, eGFP fusion (Elizabethkingia meningoseptica, UniProt Q9KJX5); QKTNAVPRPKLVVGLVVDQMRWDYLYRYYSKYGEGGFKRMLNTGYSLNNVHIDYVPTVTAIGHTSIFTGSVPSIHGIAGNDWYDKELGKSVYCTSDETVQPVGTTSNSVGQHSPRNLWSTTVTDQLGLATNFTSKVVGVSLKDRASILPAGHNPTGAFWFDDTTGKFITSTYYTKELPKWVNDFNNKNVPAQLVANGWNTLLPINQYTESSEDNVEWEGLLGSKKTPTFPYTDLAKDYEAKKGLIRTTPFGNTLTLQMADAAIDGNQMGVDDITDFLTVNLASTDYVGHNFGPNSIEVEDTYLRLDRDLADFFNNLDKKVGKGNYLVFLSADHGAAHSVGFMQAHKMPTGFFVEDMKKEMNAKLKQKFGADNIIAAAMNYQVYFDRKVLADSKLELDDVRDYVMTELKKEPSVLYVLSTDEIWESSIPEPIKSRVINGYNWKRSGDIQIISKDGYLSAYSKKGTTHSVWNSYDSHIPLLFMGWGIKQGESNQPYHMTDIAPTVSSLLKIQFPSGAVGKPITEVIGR
Substitution	oxyanion analog dissociation constant [µM]
I61G	1.61
G69A	2.43
D162V	1.55
T57G	1.04
Q366V	2.3
I147V	2.35
I485V	2.73
P149G	1.28
I273V	2.59
K38G	1.72
N205G	2.21
T228G	1.54
V13G	2.23
Y32G	1.53
H63G	10.6
V181A	1.93
I427V	2.54
Y26V	2.09

Further values, each from its own experiment
Substance	partner	method	medium	together with	measurement	result
TCP1 (Homo sapiens, UniProt P17987)	CCT8 (Homo sapiens, UniProt P50990)	cross-linking MS	cells	BSPNO	cross-linked residues	K494 to K466

Some of these lines once more (study 1):
Sequence	enrichment fold change
QPYFLPKYVITVDNS	8.47
DMYEYRYKPHYVIQI	6.57
